Measured values collected from several papers.
Protocols differ between the studies behind these lines.
Chain of UniProt P02769 (whole entry, looked up): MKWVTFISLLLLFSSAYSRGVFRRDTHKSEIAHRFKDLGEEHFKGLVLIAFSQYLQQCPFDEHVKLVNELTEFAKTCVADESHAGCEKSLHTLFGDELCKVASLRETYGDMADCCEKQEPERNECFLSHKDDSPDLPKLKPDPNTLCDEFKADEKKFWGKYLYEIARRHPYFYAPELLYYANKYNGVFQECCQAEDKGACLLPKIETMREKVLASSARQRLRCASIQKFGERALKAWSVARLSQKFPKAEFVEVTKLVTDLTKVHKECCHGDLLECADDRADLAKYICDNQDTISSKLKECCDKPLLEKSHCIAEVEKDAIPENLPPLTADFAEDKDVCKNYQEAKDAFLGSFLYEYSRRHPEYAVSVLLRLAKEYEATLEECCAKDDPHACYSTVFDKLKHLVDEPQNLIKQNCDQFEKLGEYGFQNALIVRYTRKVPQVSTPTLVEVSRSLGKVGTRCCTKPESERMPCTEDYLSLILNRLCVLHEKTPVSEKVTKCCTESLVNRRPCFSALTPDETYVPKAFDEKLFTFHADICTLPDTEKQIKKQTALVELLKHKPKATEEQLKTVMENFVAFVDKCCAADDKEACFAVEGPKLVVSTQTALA

| SMILES | tested on | assay | system | setting | endpoint | result |
| --- | --- | --- | --- | --- | --- | --- |
| O=S(=O)(Nc1ccccc1)c1ccc(NC(=S)Nc2ccccc2)cc1 | Escherichia coli | refers to: ler, stx2a | EHEC O157:H7 | concentration not given | mRNA level | no effect |
| CCN(CC)CCOC1CCC2(C)C(=CCC3C4CCC(=O)C4(C)CCC32)C1 (centres unmarked) | Severe acute respiratory syndrome coronavirus 2 | cytopathic effect | Vero C1008 | 72 h | IC50 | ~170 nM |
| O=c1c(O)c(-c2cc(O)c(O)c(O)c2)oc2cc(O)cc(O)c12 | SARS-CoV-2 | cytopathic effect | Vero E6 | 10 µM | inhibition | 1.9% |
| CC(=O)Oc1ccc(CCCCCCCCC(=O)c2c(OC(C)=O)cccc2OC(C)=O)cc1OC(C)=O | SARS-CoV-2 | MTT | Vero E6/TMPRSS2, WK-521 ancestral | – | EC50 | 1300 nM |
| COc1ccc(C(=O)OC2C(OC3C(O)COC(OC4CC5C6CC=C7CC(O)CCC7(C)C6CCC5(C)C4(O)C(C)C(=O)CCC(C)C)C3OC(C)=O)OCC(O)C2O)cc1 (centres unmarked) | Severe acute respiratory syndrome coronavirus 2 | cytopathic effect | Vero C1008 | 72 h | IC50 | ~2 nM |
| CC(=O)N[C@@H](Cc1c[nH]cn1)C(=O)N[C@@H](CCCNC(=N)N)C(=O)N[C@@H](CCCNC(=N)N)C(=O)N[C@@H](CCCNC(=N)N)C(=O)N[C@@H](CCCNC(=N)N)C(=O)N[C@@H](CCCNC(=N)N)C(=O)N[C@@H](CCCNC(=N)N)C(=O)N[C@@H](CCCNC(=N)N)C(=O)N[C@@H](CCCNC(=N)N)C(=O)N[C@@H](Cc1c[nH]cn1)C(N)=O | Albumin (ALB, Bos taurus, UniProt P02769) | fluorescence quenching | – | added: site competitor digitoxin | Kb | 730000 M⁻¹ |
| O=S(=O)(Nc1ccccc1)c1ccc(N=C=S)cc1 | Escherichia coli | refers to: ler, eae, stx2a | EHEC O157:H7 | concentration not given | mRNA level | decreased |
| Oc1ccc(CCCCCCCCC(O)c2c(O)cccc2O)cc1O (centres unmarked) | SARS-CoV-2 | MTT | Vero E6/TMPRSS2, WK-521 ancestral | – | EC50 | 5400 nM |

For quick reference, copied from above:
| SMILES | tested on | assay | system | setting | endpoint | result |
| --- | --- | --- | --- | --- | --- | --- |
| O=S(=O)(Nc1ccccc1)c1ccc(NC(=S)Nc2ccccc2)cc1 | Escherichia coli | refers to: ler, stx2a | EHEC O157:H7 | concentration not given | mRNA level | no effect |
